Assay results collected from several papers.
Protocols differ between the studies behind these lines. ± marks the error that the study gave.

CCNc1cc2[o+]c3cc(NCC)c(C)cc3c(-c3ccccc3C(=O)OCCOCC[18F])c2cc1C — tissue uptake ratio (rat; 60 min; baseline: heart over liver): 6
[2H]C([2H])([2H])C([2H])([2H])C([2H])([2H])OC(C(=O)OC1CCNCC1)(c1ccccc1)c1ccccc1 — Cmax (healthy Japanese male subjects, plasma; oral, 18 mg once daily, day 1, fed, mean): 34.3 ng/mL
CC(C)[C@H](NC(=O)CNC(=O)[C@H](CCC(N)=O)NC(=O)[C@H](C)N)C(=O)O — subjects with mild adverse events (human; 1 mg/kg single dose): 16.7%
Nc1ccc(OC(=O)NC2CCCCC2)cc1-c1ccccc1 — log hydrolysis rate constant (rat plasma): -3.05
CC[C@H](C)C(=O)N1CCC(NC(=O)Nc2ccc(OC(F)(F)F)c(F)c2)CC1 — subjects with moderate TEAE (healthy volunteers; oral, 24 mg single dose, 14 (unit not given)): 0%
CSCC[C@H](NC(=O)CNC(=O)[C@H](CC(=O)O)NC(=O)[C@@H](NC(=O)[C@@H](NC(=O)[C@@H](NC(=O)CNC(=O)[C@H](CCC(=O)O)NC(=O)[C@H](CCSC)NC(=O)[C@H](CC(=O)O)NC(=O)[C@H](C)NC(=O)[C@H](C)NC(=O)[C@@H](NC(=O)[C@H](CO)NC(=O)[C@@H](N)CC(C)C)[C@@H](C)O)C(C)C)C(C)C)[C@@H](C)O)C(=O)N[C@@H](C)C(=O)N[C@@H](CO)C(=O)NCC(=O)N[C@@H](CC(C)C)C(=O)N[C@@H](CC(=O)O)C(=O)N[C@@H](CCCCN)C(=O)N[C@@H](CC(=O)O)C(=O)N[C@@H](Cc1ccc(O)cc1)C(=O)N[C@@H](CC(C)C)C(=O)N[C@@H](CCCCN)C(=O)N1CCC[C@H]1C(=O)N[C@@H](CC(=O)O)C(=O)N[C@@H](CC(=O)O)C(=O)O — t1/2 beta (male CD-1 mice, serum; intravenous, 480 mg/kg): 13.8 min
CSCC[C@@H]1NC(=O)[C@@H]2CSSC[C@H](NC(=O)[C@H](CO)NC(=O)[C@H](C)N)C(=O)N[C@@H](CCCNC(=N)N)C(=O)N[C@@H]([C@@H](C)O)C(=O)N3CCC[C@H]3C(=O)N[C@@H](CCCCN)C(=O)N[C@@H](CC(=O)O)C(=O)N[C@H]3CSSC[C@H](NC(=O)[C@H](CCCCN)NC(=O)[C@H](CCCNC(=N)N)NC(=O)[C@H](CC(N)=O)NC1=O)C(=O)N[C@@H](CCCCN)C(=O)N[C@H]1CSSC[C@H](NC(=O)[C@@H]4CCCN4C(=O)[C@H](CC(=O)O)NC(=O)[C@H](C)NC3=O)C(=O)N[C@@H](C)C(=O)N[C@@H](CCCCN)C(=O)N[C@@H](CCC(=O)O)C(=O)N[C@@H]([C@@H](C)O)C(=O)NCC(=O)N[C@@H](CSSC[C@@H](C(N)=O)NC(=O)[C@H](CCCNC(=N)N)NC(=O)[C@H](CC(N)=O)NC1=O)C(=O)N1CCC[C@H]1C(=O)N[C@@H](Cc1ccc(O)cc1)C(=O)NCC(=O)N[C@@H](CCCCN)C(=O)N2 — AST (DA rat, pristane-induced arthritis, serum; subcutaneous, single 0.1 mg/kg at onset, end of 21-day trial): 116 U/L
CC(C)COC1O[C@@H]2O[C@@]3(C)CC[C@H]4[C@H](C)CCC([C@H]1C)[C@@]24OO3 (stereo partly drawn) — dead embryos (Tg(fli1:EGFP) zebrafish embryos; 10 µg/mL, up to 48 hpf): 1 count
COC(=O)C[C@](O)(CCCC(C)(C)OC(C)=O)C(=O)O[C@@H]1C(OC)=C[C@]23CCCN2CCc2cc4c(cc2[C@H]13)OCO4 — tissue concentration (CD1 mouse, large intestine; subcutaneous, 1 mg/kg, 0.5 h): 485 ng/mL
COc1cc(NC(=O)C(=O)c2c(C)n(Cc3ccc(Cl)cc3)c3ccc(C)cc23)ccn1 — Vss (male cynomolgus monkey, plasma; intravenous, 1 mg/kg, mean): 4.52 L/kg
CCN(CCCCOc1ccc(CCC(=O)N2CCC(Cc3ccccc3)CC2)cc1OC)Cc1ccccc1 — concentration (Sprague-Dawley rats, both sexes, brain; oral, 25 mg/kg, 0.75 h): 1400 ng/g
[11CH3]n1c(=O)n(CCCO)c(=O)c2c1nc(Oc1cccc(OC(F)(F)F)c1)n2Cc1ccc(Cl)cc1 — tracer uptake (ex vivo biodistribution; Sprague Dawley rat, lung; 60 min post injection): 0.63 ± 0.13 %ID/g
N=C(N)Nc1ccc(-c2nc3ccc(-c4ccc5nc(-c6ccc(NC(=N)N)cc6)[nH]c5c4)cc3[nH]2)cc1 — tolerability (HSA-LR mouse; intraperitoneal, 40 mg/kg daily, 7 days): not toxic
CCc1c2c(nc3ccc(OC4OC(C(=O)O)C(O)C(O)C4O)cc13)-c1cc3c(c(=O)n1C2)COC(=O)C3(O)CC (stereo not drawn) — Cmax (human patients, plasma; intravenous, 42 mg/m^2 of parent drug): 57 ng/mL
CC(C)C[C@@H](/C=C/[C@H](Cc1ccccc1)C(=O)N1CCC[C@H]1C(=O)N[C@H](C(=O)N[C@@H](CCCNC(=O)OCc1ccccc1)C(=O)NC1CC(C)(C)N([O])C(C)(C)C1)C(C)C)NC(=O)OC(C)(C)C — compound remaining (metabolic stability; male mouse, liver microsomes; 1 h): 13%
CC(C)(CCCC/C=C/CCCCCC(C)(C)C(=O)O)C(=O)O — Tmax (rhesus monkey, male, hyperlipidaemic, plasma; oral, 20 mg/kg, first dose): 79.8 ± 34.8 min
CC[C@H](C)[C@H](NC(=O)[C@H](CCCNC(=N)N)NC(=O)[C@H](CCCNC(=N)N)NC(=O)[C@H](CC(C)C)NC(=O)[C@@H](N)Cc1c[nH]c2ccccc12)C(=O)NCC(=O)N[C@@H](CCCCN)C(=O)NCC(=O)N[C@H](C(=O)N[C@@H](CCCCN)C(=O)N[C@H](C(=O)N[C@H](C(=O)NCC(=O)NCC(=O)N[C@@H](C)C(=O)N[C@@H](C)C(=O)N[C@@H](CC(C)C)C(=O)N[C@@H](CC(=O)O)C(=O)N[C@@H](Cc1c[nH]cn1)C(=O)N[C@@H](CC(C)C)C(N)=O)[C@@H](C)CC)[C@@H](C)CC)C(C)C — toxicity (zebrafish embryos; 1, 5, 25 µM, 4, 28, 52 hpf): not toxic
C=Cc1c(C)c2cc3nc(c(CC(=O)O)c4[nH]c(cc5nc(cc1[nH]2)C(C)=C5CC)c(C)c4C(=O)O)[C@@H](CCC(=O)NCCCC[C@H](NC(C)=O)C(=O)N[C@@H](Cc1ccccc1)C(=O)N[C@@H](Cc1ccccc1)C(=O)N[C@H](C(=O)N[C@@H](CC(C)C)C(=O)N[C@@H](CCCCN)C(=O)N[C@@H](CO)C(=O)NCC(=O)N[C@@H](CCC(N)=O)C(=O)N[C@@H](Cc1ccc(O)cc1)C(=O)N[C@@H](C)C(=O)N[C@@H](CO)C(=O)N[C@@H](Cc1ccc(O)cc1)C(=O)N[C@@H](Cc1c[nH]cn1)C(=O)N[C@@H](CS)C(=O)N[C@@H](Cc1c[nH]c2ccccc12)C(=O)N[C@@H](CS)C(=O)N[C@@H](Cc1c[nH]c2ccccc12)C(=O)N[C@@H](CCCNC(=N)N)C(=O)N[C@@H](CC(=O)O)C(=O)N1CCC[C@H]1C(=O)NCC(=O)N[C@@H](CCCNC(=N)N)C(=O)N[C@@H](CO)C(=O)NCC(=O)NCC(=O)N[C@@H](CO)C(=O)N[C@@H](CCCCN)C(N)=O)C(C)C)[C@@H]3C — time to peak liver fluorescence (ex vivo fluorescence imaging; mice bearing 4T1 tumours, liver; iv, 13 mg/kg): 6 h
CC[C@@H](C)[C@@H](NC(=O)[C@@H](C)NC(=O)[C@H](NC(=O)[C@@H](CC(=O)O)NC(=O)[C@@H](CCCCN)NC(=O)[C@@H](CO)NC(=O)[C@H](NC(=O)[C@@H](CC(N)=O)NC(=O)[C@@H](C)NC(=O)[C@H](NC(=O)[C@@H](CCC(=O)O)NC(=O)[C@@H](CCCCN)NC(=O)[C@H](NC(=O)[C@H](NC(=O)[C@@H](Cc1c[nH]cn1)NC(=O)[C@@H](CCCCN)NC(=O)[C@H](NC(=O)[C@@H](CCCCN)NC(=O)[C@@H](CCCCN)NC(=O)[C@H](NC(=O)[C@@H](CC(C)C)NC(=O)[C@@H](CCCCN)NC(=O)[C@@H](CC(N)=O)NC(=O)[C@@H](Cc1ccccc1)NC(=O)[C@@H](CCCNC(=N)N)NC(=O)[C@@H](CCCCN)NC(=O)[C@@H](CCCNC(=N)N)NC(=O)[C@@H](Cc1ccccc1)NC(=O)CN)C(C)C)C(C)C)[C@H](C)O)[C@H](C)CC)[C@H](C)O)C(C)C)C(C)C)C(=O)N[C@@H](C(=O)N[C@H](C)C(=O)NCC(=O)N[C@H](CO)C(=O)NCC(=O)N[C@@H](C(=O)N[C@H](C)C(=O)N[C@@H](C(=O)NCC(=O)N[C@H](C)C(=O)N[C@H](C)C(=O)N[C@H](CCSC)C(N)=O)C(C)C)C(C)C)C(C)C — minimal haemolytic concentration (human erythrocytes): > 1020 mg/L
CC(C)C[C@H](NC(=O)[C@H](CCCCN)NC(=O)[C@H](CCC(=O)O)NC(=O)[C@H](C)NC(=O)[C@@H](NC(=O)[C@H](CCCCN)NC(=O)[C@H](CC(=O)O)NC(=O)[C@H](Cc1ccc(O)cc1)NC(=O)[C@H](Cc1ccccc1)NC(=O)[C@H](C)NC(=O)[C@H](CCCCN)NC(=O)[C@H](CC(C)C)NC(=O)[C@H](Cc1c[nH]c2ccccc12)NC(=O)[C@@H](N)CC(=O)O)C(C)C)C(=O)N[C@@H](CCCCN)C(=O)N[C@@H](CCC(=O)O)C(=O)N[C@@H](C)C(=O)N[C@@H](Cc1ccccc1)C(=O)N1CCC[C@H]1C(=O)N[C@@H](CC(=O)O)C(=O)N[C@@H](Cc1c[nH]c2ccccc12)C(=O)N[C@@H](C)C(=O)N[C@@H](CCCCN)C(=O)N[C@@H](C)C(=O)N[C@@H](C)C(=O)N[C@@H](Cc1ccc(O)cc1)C(=O)N[C@@H](CC(=O)O)C(=O)N[C@@H](CCCCN)C(=O)N[C@@H](C)C(=O)N[C@@H](C)C(=O)N[C@@H](CCC(=O)O)C(=O)N[C@@H](CCCCN)C(=O)N[C@@H](C)C(=O)N[C@@H](CCCCN)C(=O)N[C@@H](CCC(=O)O)C(=O)N[C@@H](C)C(=O)N[C@@H](C)C(=O)O — clearance (cynomolgus monkey female, plasma; intravenous infusion, 8 mg/kg every other day, day 27): 0.233 mL/min/kg
CCc1noc(CC)c1C(=O)O[C@H]1C(C)=C[C@]23C(=O)[C@@H](C=C(CO)[C@@H](O)[C@]12O)[C@H]1[C@@H](C[C@H]3C)C1(C)C — epidermal over dermal concentration ratio (human, skin, Franz diffusion cell; topical, 0.1% in gel, 21 h; baseline: epidermis over dermis): > 100 fold

Repeated from above:
CC(C)(CCCC/C=C/CCCCCC(C)(C)C(=O)O)C(=O)O — Tmax (rhesus monkey, male, hyperlipidaemic, plasma; oral, 20 mg/kg, first dose): 79.8 ± 34.8 min
CC[C@H](C)[C@H](NC(=O)[C@H](CCCNC(=N)N)NC(=O)[C@H](CCCNC(=N)N)NC(=O)[C@H](CC(C)C)NC(=O)[C@@H](N)Cc1c[nH]c2ccccc12)C(=O)NCC(=O)N[C@@H](CCCCN)C(=O)NCC(=O)N[C@H](C(=O)N[C@@H](CCCCN)C(=O)N[C@H](C(=O)N[C@H](C(=O)NCC(=O)NCC(=O)N[C@@H](C)C(=O)N[C@@H](C)C(=O)N[C@@H](CC(C)C)C(=O)N[C@@H](CC(=O)O)C(=O)N[C@@H](Cc1c[nH]cn1)C(=O)N[C@@H](CC(C)C)C(N)=O)[C@@H](C)CC)[C@@H](C)CC)C(C)C — toxicity (zebrafish embryos; 1, 5, 25 µM, 4, 28, 52 hpf): not toxic
